Measurements collected from several papers.
Each numbered part is a random draw from the data of one study; scales do not carry over between parts.
UniProt P49760, sequence (whole entry, looked up): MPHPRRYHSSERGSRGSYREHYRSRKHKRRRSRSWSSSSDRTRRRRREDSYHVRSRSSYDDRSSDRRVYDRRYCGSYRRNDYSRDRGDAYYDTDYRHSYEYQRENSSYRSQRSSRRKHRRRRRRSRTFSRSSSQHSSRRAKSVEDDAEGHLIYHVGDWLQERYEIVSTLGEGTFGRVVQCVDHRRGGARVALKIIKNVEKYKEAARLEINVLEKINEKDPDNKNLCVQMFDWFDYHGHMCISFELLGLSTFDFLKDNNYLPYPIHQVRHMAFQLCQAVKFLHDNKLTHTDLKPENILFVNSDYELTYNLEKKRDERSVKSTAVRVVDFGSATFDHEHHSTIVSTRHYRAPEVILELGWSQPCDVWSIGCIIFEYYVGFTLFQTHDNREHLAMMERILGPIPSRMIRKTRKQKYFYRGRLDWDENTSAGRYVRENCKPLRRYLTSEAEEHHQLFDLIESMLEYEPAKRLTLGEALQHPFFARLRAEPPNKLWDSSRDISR
UniProt Q14012, sequence (whole entry, looked up): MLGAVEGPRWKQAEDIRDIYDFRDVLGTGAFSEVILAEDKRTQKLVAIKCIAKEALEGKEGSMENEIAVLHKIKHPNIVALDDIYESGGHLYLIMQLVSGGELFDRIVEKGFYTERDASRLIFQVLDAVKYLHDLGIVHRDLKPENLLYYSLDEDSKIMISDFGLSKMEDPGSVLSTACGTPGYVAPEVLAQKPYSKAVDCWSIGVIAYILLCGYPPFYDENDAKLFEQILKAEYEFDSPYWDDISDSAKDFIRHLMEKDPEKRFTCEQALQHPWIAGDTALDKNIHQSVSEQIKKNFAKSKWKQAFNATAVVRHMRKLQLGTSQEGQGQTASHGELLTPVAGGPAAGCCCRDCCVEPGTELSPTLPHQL
UniProt Q9H0K1, sequence (whole entry, looked up): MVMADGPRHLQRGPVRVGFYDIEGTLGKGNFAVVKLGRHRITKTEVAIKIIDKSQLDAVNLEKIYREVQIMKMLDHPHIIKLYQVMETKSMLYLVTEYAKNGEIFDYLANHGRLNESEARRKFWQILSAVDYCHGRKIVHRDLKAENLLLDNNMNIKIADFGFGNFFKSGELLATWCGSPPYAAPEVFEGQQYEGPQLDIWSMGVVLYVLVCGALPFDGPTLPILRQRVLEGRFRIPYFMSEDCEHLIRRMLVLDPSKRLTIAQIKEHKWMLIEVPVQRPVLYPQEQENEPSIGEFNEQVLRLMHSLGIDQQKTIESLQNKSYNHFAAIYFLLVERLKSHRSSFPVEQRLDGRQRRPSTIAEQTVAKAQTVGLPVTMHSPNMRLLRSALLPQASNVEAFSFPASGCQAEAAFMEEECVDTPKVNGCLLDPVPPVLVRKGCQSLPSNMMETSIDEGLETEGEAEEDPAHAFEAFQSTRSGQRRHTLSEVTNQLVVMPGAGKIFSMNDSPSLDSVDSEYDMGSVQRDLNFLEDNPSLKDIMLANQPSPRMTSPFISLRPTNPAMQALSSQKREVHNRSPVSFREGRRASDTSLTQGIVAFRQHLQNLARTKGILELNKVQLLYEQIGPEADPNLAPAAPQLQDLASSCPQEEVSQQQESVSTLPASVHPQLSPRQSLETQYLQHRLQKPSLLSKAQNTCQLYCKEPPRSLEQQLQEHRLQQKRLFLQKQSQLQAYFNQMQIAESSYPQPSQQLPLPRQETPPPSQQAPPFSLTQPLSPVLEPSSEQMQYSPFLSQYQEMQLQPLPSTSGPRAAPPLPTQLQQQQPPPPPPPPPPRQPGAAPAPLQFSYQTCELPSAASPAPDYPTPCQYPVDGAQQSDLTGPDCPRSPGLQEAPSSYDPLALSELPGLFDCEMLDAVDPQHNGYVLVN
UniProt Q32MK0, sequence (whole entry, looked up): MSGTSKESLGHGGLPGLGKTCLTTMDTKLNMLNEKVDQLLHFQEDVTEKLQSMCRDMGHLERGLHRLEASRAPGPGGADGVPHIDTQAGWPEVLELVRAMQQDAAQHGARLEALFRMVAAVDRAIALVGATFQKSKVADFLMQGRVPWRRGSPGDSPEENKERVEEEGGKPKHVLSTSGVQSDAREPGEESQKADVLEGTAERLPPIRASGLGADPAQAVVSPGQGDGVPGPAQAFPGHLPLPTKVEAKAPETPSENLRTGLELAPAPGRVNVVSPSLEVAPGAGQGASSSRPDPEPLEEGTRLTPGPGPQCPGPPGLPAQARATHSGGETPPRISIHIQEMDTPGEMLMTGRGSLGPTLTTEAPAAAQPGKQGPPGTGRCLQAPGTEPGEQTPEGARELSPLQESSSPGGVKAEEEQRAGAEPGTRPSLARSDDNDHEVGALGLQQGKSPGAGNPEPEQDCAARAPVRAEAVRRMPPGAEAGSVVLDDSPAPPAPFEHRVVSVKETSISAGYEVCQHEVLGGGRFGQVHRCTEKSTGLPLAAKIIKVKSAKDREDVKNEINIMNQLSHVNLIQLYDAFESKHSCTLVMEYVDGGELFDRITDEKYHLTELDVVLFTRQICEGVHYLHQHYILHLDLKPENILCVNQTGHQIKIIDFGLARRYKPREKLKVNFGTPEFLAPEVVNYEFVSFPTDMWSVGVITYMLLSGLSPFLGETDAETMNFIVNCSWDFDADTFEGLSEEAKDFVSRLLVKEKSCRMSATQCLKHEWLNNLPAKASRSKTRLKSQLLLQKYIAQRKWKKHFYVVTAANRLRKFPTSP
UniProt Q96SB4, sequence (whole entry, looked up): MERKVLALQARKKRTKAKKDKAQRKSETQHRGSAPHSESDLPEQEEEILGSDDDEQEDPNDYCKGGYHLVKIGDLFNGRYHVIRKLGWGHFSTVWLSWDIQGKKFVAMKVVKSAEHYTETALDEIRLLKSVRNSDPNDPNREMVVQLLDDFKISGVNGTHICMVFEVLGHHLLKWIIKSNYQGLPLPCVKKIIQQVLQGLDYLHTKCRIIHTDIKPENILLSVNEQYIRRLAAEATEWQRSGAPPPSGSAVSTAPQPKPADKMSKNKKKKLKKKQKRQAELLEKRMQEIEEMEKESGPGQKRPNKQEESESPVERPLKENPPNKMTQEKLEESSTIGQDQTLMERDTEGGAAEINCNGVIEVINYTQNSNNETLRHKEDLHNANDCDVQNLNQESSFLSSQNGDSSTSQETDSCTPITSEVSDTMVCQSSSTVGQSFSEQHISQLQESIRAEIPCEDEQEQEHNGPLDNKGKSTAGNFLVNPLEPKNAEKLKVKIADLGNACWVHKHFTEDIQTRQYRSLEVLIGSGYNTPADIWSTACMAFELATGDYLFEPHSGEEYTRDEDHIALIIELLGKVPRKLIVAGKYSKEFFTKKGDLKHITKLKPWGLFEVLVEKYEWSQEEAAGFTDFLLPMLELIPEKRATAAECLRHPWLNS
UniProt P49674, sequence (whole entry, looked up): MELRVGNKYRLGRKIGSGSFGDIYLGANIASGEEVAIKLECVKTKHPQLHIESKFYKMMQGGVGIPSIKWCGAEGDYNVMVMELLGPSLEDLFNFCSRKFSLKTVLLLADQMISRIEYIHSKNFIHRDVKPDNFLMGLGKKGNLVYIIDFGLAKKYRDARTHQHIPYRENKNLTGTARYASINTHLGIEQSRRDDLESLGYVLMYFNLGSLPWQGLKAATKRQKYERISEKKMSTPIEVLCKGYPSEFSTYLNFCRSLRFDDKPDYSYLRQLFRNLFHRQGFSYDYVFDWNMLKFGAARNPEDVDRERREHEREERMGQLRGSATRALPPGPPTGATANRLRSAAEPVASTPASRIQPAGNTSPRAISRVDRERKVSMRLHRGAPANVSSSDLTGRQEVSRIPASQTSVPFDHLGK
UniProt Q04759, sequence (whole entry, looked up): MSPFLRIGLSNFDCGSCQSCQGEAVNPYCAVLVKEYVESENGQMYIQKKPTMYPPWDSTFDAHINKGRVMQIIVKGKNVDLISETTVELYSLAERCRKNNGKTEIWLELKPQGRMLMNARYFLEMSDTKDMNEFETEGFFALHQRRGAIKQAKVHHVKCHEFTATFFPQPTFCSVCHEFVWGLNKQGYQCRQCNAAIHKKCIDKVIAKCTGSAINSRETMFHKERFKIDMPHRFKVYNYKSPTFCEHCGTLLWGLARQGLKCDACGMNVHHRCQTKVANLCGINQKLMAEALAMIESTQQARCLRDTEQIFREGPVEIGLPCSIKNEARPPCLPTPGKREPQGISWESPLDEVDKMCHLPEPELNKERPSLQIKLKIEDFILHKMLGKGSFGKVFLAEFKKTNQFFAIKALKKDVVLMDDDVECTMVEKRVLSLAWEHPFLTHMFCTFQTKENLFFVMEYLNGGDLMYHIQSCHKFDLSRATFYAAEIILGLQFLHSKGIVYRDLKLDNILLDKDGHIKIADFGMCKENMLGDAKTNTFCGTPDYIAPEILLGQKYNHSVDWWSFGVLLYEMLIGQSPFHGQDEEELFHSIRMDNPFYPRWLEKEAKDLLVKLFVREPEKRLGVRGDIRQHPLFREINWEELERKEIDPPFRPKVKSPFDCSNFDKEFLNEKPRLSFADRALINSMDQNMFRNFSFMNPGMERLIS

Study 1 — technique: RNA Bind-n-Seq; form: RNA; sample: in vitro; tested at: not given; setting: 4-mer, random 30-nt RNA, single round; together with: RocA, ADP, phosphate; relative to: input library; reading: higher = stronger binding; measurement: 4-mer enrichment
Target: ATP-dependent RNA helicase DDX3X, helicase core (DDX3X, Homo sapiens, UniProt O00571, residues 132-607)
UniProt O00571, sequence (132-607, looked up): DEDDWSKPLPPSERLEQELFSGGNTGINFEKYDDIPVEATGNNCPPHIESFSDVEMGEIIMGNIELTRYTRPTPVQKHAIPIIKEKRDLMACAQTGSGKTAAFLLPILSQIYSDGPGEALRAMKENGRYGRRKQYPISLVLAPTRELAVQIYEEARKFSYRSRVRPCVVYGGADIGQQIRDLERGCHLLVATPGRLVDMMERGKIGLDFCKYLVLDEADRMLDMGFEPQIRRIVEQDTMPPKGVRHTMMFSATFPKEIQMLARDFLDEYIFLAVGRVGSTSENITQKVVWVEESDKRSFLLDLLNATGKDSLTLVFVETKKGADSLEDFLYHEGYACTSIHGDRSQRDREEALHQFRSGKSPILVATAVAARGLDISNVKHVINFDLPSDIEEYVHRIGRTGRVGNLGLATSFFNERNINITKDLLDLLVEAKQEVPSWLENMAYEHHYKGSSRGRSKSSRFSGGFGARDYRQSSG
AAGC: 0.822 fold
AUUA: 0.92 fold
UAGU: 1.04 fold
ACGC: 0.648 fold
ACUA: 0.718 fold
ACGG: 0.849 fold
UUGA: 1.18 fold
UCUA: 0.737 fold

Study 2 — effect on: cell-free assay; technique: competition with immobilised ligand; tested at: 0.1 µM; measurement: remaining binding
SMILES: CC(C)CC(=O)N1CCc2nc(-c3ccc(Br)cc3)nc(N(C)Cc3ccccc3)c2C1
Serine/threonine-protein kinase 26 (STK26, Homo sapiens, UniProt Q9P289): 100%
Phosphatidylinositol 4-phosphate 3-kinase C2 domain-containing subunit beta (PIK3C2B, Homo sapiens, UniProt O00750): 100%
Serine/threonine-protein kinase Sgk1 (SGK1, Homo sapiens, UniProt O00141): 99%
cAMP-dependent protein kinase catalytic subunit beta (PRKACB, Homo sapiens, UniProt P22694): 82%
Myosin light chain kinase (MYLK3, Homo sapiens, UniProt Q32MK0): 98%
MAP/microtubule affinity-regulating kinase 3 (MARK3, Homo sapiens, UniProt P27448): 100%

Study 3 — technique: RNAcompete; form: RNA; sample: in vitro; tested at: 20 nM; setting: 7-mer, probes averaged, single round; relative to: mean of 7-mers; reading: higher = stronger binding; measurement: 7-mer Z-score
Target: PABPC1L2, full length, GST fusion (mouse, UniProt A0ABA7IW68)
Residues (chain): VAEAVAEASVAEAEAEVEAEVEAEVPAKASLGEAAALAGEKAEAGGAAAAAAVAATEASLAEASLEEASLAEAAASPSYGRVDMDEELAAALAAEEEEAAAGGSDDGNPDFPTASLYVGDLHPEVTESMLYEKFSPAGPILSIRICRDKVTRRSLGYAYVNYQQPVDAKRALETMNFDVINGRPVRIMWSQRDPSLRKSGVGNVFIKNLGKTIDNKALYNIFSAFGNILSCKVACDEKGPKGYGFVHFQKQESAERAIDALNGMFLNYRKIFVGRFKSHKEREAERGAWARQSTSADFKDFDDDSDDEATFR
AGCAGUU: -0.286
GAAUUCU: -0.32
CCAAAGG: 0.1
CAGAUCU: -0.142
UGCAGAU: -0.101
UUAUACG: -0.132
ACCGGAC: -0.119
CUUAUUC: -0.307

Study 4 — effect on: enzyme activity; mode: inhibitor; tested at: 0.5 µM; relative to: control; measurement: remaining activity
SMILES: CN(C)CCCn1cc(C2=C(c3c[nH]c4ccccc34)C(=O)NC2=O)c2ccccc21
Calcium/calmodulin-dependent protein kinase type 1 (CAMK1, Homo sapiens, UniProt Q14012): 82.7%
Insulin-like growth factor 1 receptor (IGF1R, Homo sapiens, UniProt P08069): 91.7%
Dual specificity protein kinase CLK1 (CLK1, Homo sapiens, UniProt P49759): 60.3%
Protein kinase C zeta type (PRKCZ, Homo sapiens, UniProt Q05513): 57.2%
Mitogen-activated protein kinase kinase kinase 20 (MAP3K20, Homo sapiens, UniProt Q9NYL2): 93.1%
Serine/threonine-protein kinase PAK 5 (PAK5, Homo sapiens, UniProt Q9P286): 92.8%
Tyrosine-protein kinase JAK1 (JAK1, Homo sapiens, UniProt P23458): 88.7%
Casein kinase I isoform epsilon (CSNK1E, Homo sapiens, UniProt P49674): 96.3%
Serine/threonine-protein kinase SIK2 (SIK2, Homo sapiens, UniProt Q9H0K1): 94.7%
Protein kinase C theta type (PRKCQ, Homo sapiens, UniProt Q04759): 17.3%
Activin receptor type-1-like (ACVRL1, Homo sapiens, UniProt P37023): 107%
SRSF protein kinase 1 (SRPK1, Homo sapiens, UniProt Q96SB4): 87%
Serine/threonine-protein kinase PAK 1 (PAK1, Homo sapiens, UniProt Q13153): 84.2%
Tyrosine-protein kinase Tec (TEC, Homo sapiens, UniProt P42680): 116%
Dual specificity protein kinase CLK2 (CLK2, Homo sapiens, UniProt P49760): 28%
Vascular endothelial growth factor receptor 1 (FLT1, Homo sapiens, UniProt P17948): 78.1%

A few entries again (study 1):
ACGC: 0.648 fold
ACUA: 0.718 fold
ACGG: 0.849 fold
UUGA: 1.18 fold
UCUA: 0.737 fold
